Measured values gathered from unrelated publications.
B1: human AP1B1; sequence looked up; chain MTDSKYFTTTKKGEIFELKAELNSDKKEKKKEAVKKVIASMTVGKDVSALFPDVVNCMQTDNLELKKLVYLYLMNYAKSQPDMAIMAVNTFVKDCEDPNPLIRALAVRTMGCIRVDKITEYLCEPLRKCLKDEDPYVRKTAAVCVAKLHDINAQLVEDQGFLDTLKDLISDSNPMVVANAVAALSEIAESHPSSNLLDLNPQSINKLLTALNECTEWGQIFILDCLANYMPKDDREAQSICERVTPRLSHANSAVVLSAVKVLMKFMEMLSKDLDYYGTLLKKLAPPLVTLLSAEPELQYVALRNINLIVQKRPEILKHEMKVFFVKYNDPIYVKLEKLDIMIRLASQANIAQVLAELKEYATEVDVDFVRKAVRAIGRCAIKVEQSAERCVSTLLDLIQTKVNYVVQEAIVVIKDIFRKYPNKYESVIATLCENLDSLDEPEARAAMIWIVGEYAERIDNADELLESFLEGFHDESTQVQLQLLTAIVKLFLKKPTETQELVQQVLSLATQDSDNPDLRDRGYIYWRLLSTDPVAAKEVVLAEKPLISEETDLIEPTLLDELICYIGTLASVYHKPPSAFVEGGRGVVHKSLPPRTASSESAESPETAPTGAPPGEQPDVIPAQGDLLGDLLNLDLGPPVSGPPLATSSVQMGAVDLLGGGLDSLMGDEPEGIGGTNFVAPPTAAVPANLGAPIGSGLSDLFDLTSGVGTLSGSYVAPKAVWLPAMKAKGLEISGTFTRQVGSISMDLQLTNKALQVMTDFAIQFNRNSFGLAPAAPLQVHAPLSPNQTVEISLPLSTVGSVMKMEPLNNLQVAVKNNIDVFYFSTLYPLHILFVEDGKMDRQMFLATWKDIPNENEAQFQIRDCPLNAEAASSKLQSSNIFTVAKRNVEGQDMLYQSLKLTNGIWVLAELRIQPGNPSCTDLELSLKCRAPEVSQHVYQAYETILKN

`gentamicin sulfate` gave an MIC of 8 µM (Pseudomonas aeruginosa; ATCC BAA-2108, resistant; 18 h, 37 °C, LED light 10 min, 1.57 mW).
With `benzalkonium chloride` the MIC was 125 µM (Pseudomonas aeruginosa; PAO1).
`polymyxin B` gave an MIC of 1 µg/mL (Pseudomonas aeruginosa; broth microdilution; PAO1, Mueller-Hinton broth; 24 h, 37 °C).
For `colistin trifluoroacetate`, the MIC was 0.125 µg/mL (Pseudomonas aeruginosa; broth microdilution; PAO1).
With `polymyxin B` the MIC was 0.7 µg/mL (Pseudomonas aeruginosa; ATCC 10145).
For `colistin`, the MIC was 0.5 µg/mL (Pseudomonas aeruginosa; PER-producing clinical isolate R13-23).
For `colistin`, the MIC was 0.25 µg/mL (Pseudomonas aeruginosa; ATCC 27853).
`Polymyxin B sulfate` gave an MIC of 2 µg/mL (Pseudomonas aeruginosa; broth dilution; PAO1; 22 to 24 h, 37 °C).
`human TAF12` — result for “log2 fold change”: 0.71 (CYB5R4 knockout human cells; PP4 interaction, 3xFLAG-PP4C IP-MS; concentration not given; baseline: CYB5R4 KO over parental).
With `colistin` the MIC was no more than 1 µg/mL (Pseudomonas aeruginosa; clinical isolate RKI 627/13).
Under “log2 fold change”, `B1 (human AP1B1)` is recorded as 1.25 (CYB5R4 knockout human cells; PP4 interaction, 3xFLAG-PP4C IP-MS; concentration not given; baseline: CYB5R4 KO over parental).
The MIC of `colistin hydrochloride` is reported as 0.125 µg/mL (Pseudomonas aeruginosa; broth microdilution; PAO1).

A few entries again:
With `polymyxin B` the MIC was 0.7 µg/mL (Pseudomonas aeruginosa; ATCC 10145).
With `colistin` the MIC was no more than 1 µg/mL (Pseudomonas aeruginosa; clinical isolate RKI 627/13).
